Published values collected from several papers.
Protocols differ between the studies behind these lines. Numbers after ± are the reported error. Converted amounts (≈) assume the structure as drawn.

SMILES = N=C(N)Nc1ccc(-c2nc3ccc(-c4ccc5nc(-c6ccc(NC(=N)N)cc6)[nH]c5c4)cc3[nH]2)cc1; system = FVB mouse, wild type; setting = intraperitoneal, 40 mg/kg, 7 days; quantity = Serca1 exon 22 splicing; value = no effect
SMILES = CCN(CC)Cc1cc(Nc2c(C)cnc3cc(Cl)ccc23)ccc1O; tested on = West Nile virus; test = viral replication, Rluc reporter replicon; system = Vero WNV replicon cells; setting = 24 h; quantity = EC50; value = 14.8 ± 0.48 µM
SMILES = O=C1C[C@@H](c2ccc(O)cc2)Oc2cc(O)ccc21; system = Sprague-Dawley rat, Freund's adjuvant arthritis; setting = oral, 10 mg/kg, 4 h, together with: aconitine 1 mg/kg; quantity = hind paw volume; value = 1.84 ± 0.03 mL
SMILES = COc1cc(CNC(=O)C[C@H](C)CCC=C(C)C)ccc1OCc1cn(-c2ccccc2Cl)nn1; tested on = HL-60(TB); test = SRB; setting = 10 µM, 48 h; quantity = growth; value = 41.1%
SMILES = Cc1cc(Nc2nc(C[C@@]3(C(=O)O)CCN(Cc4cccc(Cl)c4F)[C@H](C)C3)cc(C)c2F)[nH]n1; tested on = AURKA (Thr288 phosphorylation), mouse; test = AURKA phosphorylation, inhibitor, refers to: phospho-AURKA Thr288; system = mouse, NCI-H446 xenograft, tumour; setting = oral, 2.5 mg/kg single dose, 1 h; quantity = inhibition; value = 50.1%
SMILES = COC[C@@H](NC(C)=O)C(=O)NCc1ccc(N=[N+]=[N-])cc1; tested on = CAD; test = sodium current; setting = 100 µM, holding potential -80 mV; how to read = baseline: DMSO; quantity = inhibition; value = ~40%
SMILES = COc1ccc(-n2cc(C(=O)N3C[C@]4(OC(=O)c5ccccc5NC(C)=O)CC[C@H](OC)[C@@]56[C@@H]4C[C@@H]([C@@H]35)[C@@]3(O)C[C@H](OC)[C@H]4C[C@@H]6[C@]3(O)[C@H]4OC)nn2)cc1; tested on = RAW264.7; test = western blot; setting = 30, 60 or 120 µM, 24 h, together with: LPS 1 µg/mL; quantity = iNOS protein level; value = decreased
SMILES = NNC(=O)/C=C/c1ccc(N)cc1; tested on = Aedes aegypti; test = larval mortality; setting = 24 h, larva; quantity = LC50; value = 238 µg/mL (≈ 1340 µM)
SMILES = CN[C@@H]1[C@H](O)[C@H](NC)[C@H]2O[C@]3(O)[C@H](O[C@@H]2[C@H]1O)O[C@H](C)C[C@@]3(O)CNCCC1CCOCC1; tested on = Mycobacteroides abscessus; test = microbial growth; system = ATCC19977; setting = 5 days; quantity = MIC; value = 16 µg/mL (≈ 33.6 µM)
SMILES = Oc1ccc(Nc2ccnc3cc(Cl)ccc23)cc1; tested on = West Nile virus; test = viral replication, Rluc reporter replicon; system = Vero WNV replicon cells; setting = 24 h; quantity = EC50; value = > 100 µM
SMILES = CC[C@H](C)[C@H](NC(=O)[C@H](CCCNC(=N)N)NC(=O)[C@H](CCC(N)=O)NC(=O)[C@H](CC(=O)O)NC(=O)[C@H](CC(C)C)NC(=O)[C@H](CC(C)C)NC(=O)[C@H](CC(N)=O)NC(=O)[C@H](Cc1ccccc1)NC(=O)[C@H](CC(=O)O)NC(=O)[C@@H](NC(=O)[C@@H](NC(=O)[C@H](CC(N)=O)NC(=O)CNC(=O)[C@H](CO)NC(C)=O)C(C)C)[C@@H](C)CC)C(=O)N[C@H](C(=O)N[C@@H](Cc1c[nH]c2ccccc12)C(=O)N[C@@H](CCC(N)=O)C(=O)N[C@@H](CC(N)=O)C(=O)N[C@@H](Cc1c[nH]c2ccccc12)C(=O)N[C@@H](Cc1ccc(O)cc1)C(=O)N[C@@H](C)C(N)=O)[C@@H](C)CC; test = refers to: HA-02 tetramer; system = antigen-experienced tetramer+ CD4 T cells, healthy adults, HLA-DRB1*0101; setting = dose not given; quantity = α4β7− CCR9− cells; value = 0%
SMILES = CC(C)C[C@H](NC(=O)CNC(=O)[C@H](CO)NC(=O)[C@@H](NC(=O)[C@H](CC(C)C)NC(=O)[C@H](CCCCN)NC(=O)[C@H](CS)NC(=O)[C@H](CCCNC(=N)N)NC(=O)[C@H](CS)NC(=O)[C@@H](NC(=O)[C@H](CC(N)=O)NC(=O)[C@H](C)NC(=O)[C@H](CS)NC(=O)[C@H](CC(C)C)NC(=O)[C@H](CCCCN)NC(=O)[C@H](CCC(N)=O)NC(=O)[C@H](C)NC(=O)CNC(=O)[C@H](CCCNC(=N)N)NC(=O)[C@H](C)NC(=O)[C@H](CCCNC(=N)N)NC(=O)[C@H](CS)NC(=O)[C@H](CC(C)C)NC(=O)[C@H](CC(N)=O)NC(=O)[C@H](Cc1ccc(O)cc1)NC(=O)[C@H](CS)NC(=O)[C@H](CC(N)=O)NC(=O)[C@H](CCCNC(=N)N)NC(=O)CNC(=O)[C@H](CC(C)C)NC(=O)[C@@H](NC(=O)[C@H](CO)NC(=O)[C@H](CCCCN)NC(=O)[C@H](CS)NC(=O)[C@H](CS)NC(=O)[C@H](CO)NC(=O)[C@@H](N)CCCCN)[C@@H](C)O)C(C)C)[C@@H](C)O)C(=O)N[C@@H](CO)C(=O)N[C@@H](CS)C(=O)N1CCC[C@H]1C(=O)N[C@@H](CCCCN)C(=O)N[C@@H](CC(=O)O)C(=O)N[C@@H](Cc1ccccc1)C(=O)N1CCC[C@H]1C(=O)N[C@@H](CCCCN)C(=O)O; test = refers to: TaPR1; system = Triticum aestivum cv. Fielder; setting = dose not given, combined sgB and sgD; how to read = baseline: control; quantity = mRNA level; value = increased
SMILES = COc1cc(CNC(=O)C[C@H](C)CCC=C(C)C)ccc1OCc1cn(-c2ccc([N+](=O)[O-])cc2)nn1; tested on = HL-60(TB); test = SRB; setting = 10 µM, 48 h; quantity = growth; value = 110%
SMILES = CC(C)[C@]12O[C@H]1[C@@H]1O[C@]13[C@]1(O[C@H]1C[C@H]1c4c(C(=O)c5ccccc5)oc(OC(=O)c5ccccc5)c4CC[C@@]13C)[C@@H]2O; tested on = MV4-11; test = cell viability, Alamar Blue; setting = 48 h; quantity = IC50; value = 0.0152 µM
SMILES = CC[N+](C)(CC)Cc1cc(Nc2ccnc3cc(Cl)ccc23)ccc1O; tested on = West Nile virus; test = viral replication, Rluc reporter replicon; system = Vero WNV replicon cells; setting = 24 h; quantity = EC50; value = 30.2 ± 6.05 µM
SMILES = C=CCc1cc2c(c(OC)c1OC)OCO2; tested on = A-375; test = cell growth or viability, MTT; setting = 72 h; quantity = GI50; value = > 250 µM
SMILES = CCN(CC)Cc1cc(Nc2c(C3CCCC3)c(C)nc3cc(Cl)ccc23)ccc1O; tested on = Dengue virus type 2; test = viral replication, Rluc reporter replicon; system = BHK-21 DENV2 replicon cells; setting = 24 h; quantity = EC50; value = 15.4 ± 1.31 µM
SMILES = COc1cc(CNC(=O)C[C@H](C)CCC=C(C)C)ccc1OCc1cn(-c2ccc(Cl)cc2Cl)nn1; tested on = HL-60(TB); test = SRB; setting = 10 µM, 48 h; quantity = growth; value = 95.5%
SMILES = CC[C@H](C)[C@H](NC(=O)[C@@H](NC(=O)[C@H](CC(=O)O)NC(C)=O)[C@@H](C)O)C(=O)N[C@@H](CCCNC(=N)N)C(=O)N[C@@H](CC(C)C)C(=O)N[C@@H](CC(C)C)C(=O)N[C@@H](Cc1ccccc1)C(=O)N[C@@H](CCC(N)=O)C(=O)N[C@@H](CC(C)C)C(=O)N[C@@H](CCSC)C(=O)N[C@@H](CCCNC(=N)N)C(=O)N1CCC[C@H]1C(=O)N1CCC[C@H]1C(=O)N[C@@H](CC(N)=O)C(=O)N[C@@H](CCSC)C(=O)N[C@H](C(=O)N1CCC[C@H]1C(=O)N[C@@H](C)C(=O)N[C@H](C(=O)N[C@@H](CC(N)=O)C(=O)N[C@@H](C)C(N)=O)C(C)C)[C@@H](C)O; test = refers to: HA-19 tetramer; system = antigen-experienced tetramer+ CD4 T cells, healthy adults, HLA-DRB1*0101; setting = dose not given; quantity = α4β7+ CCR9+ cells; value = 4%
SMILES = CCCC[C@H](NC(=O)[C@@H]1CCCN1C(=O)CNC(=O)[C@H](CCCCN)NC(=O)[C@H](Cc1c[nH]cn1)NC(=O)[C@H](CO)NC(=O)[C@H](CC(C)C)NC(=O)[C@H](CCCNC(=N)N)NC(=O)[C@@H]1CCCN1C(=O)[C@H](CCCNC(=N)N)NC(=O)[C@@H]1CCC(=O)N1)C(=O)NC(C)(C)C(=O)N[C@@H](Cc1ccc(Br)cc1)C(=O)O; system = wild-type mouse, ischaemia-reperfusion injury; setting = dose not given; quantity = infarct size; value = decreased
SMILES = CC(C)CC(O)(CC(C)C)c1cn(C(=O)N2CCCC2)nn1; tested on = mouse T-cells; test = N-terminal labeled proteins, N-terminal enrichment proteomics, refers to: TMSB4X; setting = 1 nM, 6 h; how to read = baseline: DMSO; quantity = SILAC ratio; value = 2.62 ± 0.12
SMILES = CC/C=C\C/C=C\C/C=C\C/C=C\C/C=C\C/C=C\CCC(=O)Nc1ccn(C2OC(CO)C(O)C2(F)F)c(=O)n1 (stereo not shown); tested on = KM12; test = NCI60 screen; quantity = CC50; value = 51.9 µM
SMILES = O=C(N=P12CN3CN(CN(C3)C1)C2)c1ccccn1.[Cl][Pd][Cl]; tested on = DU-145; test = cell growth or viability, MTT; setting = 24 h; quantity = IC50; value = 301 µM
SMILES = Cc1ccc(/C=C/C(=O)O)cc1-c1cc2c(cc1C)C(C)(C)CCC2(C)C; test = RNA sequencing, refers to: Arl11 mRNA; system = rat, brain; setting = dose not given, 24 h, single dose; how to read = baseline: vehicle; quantity = log2 fold change; value = -0.017
SMILES = CCCC/C=C/C(=O)N[C@@H](Cc1cc(F)cc(F)c1)C(=O)N[C@@H](COC(=O)[C@@H]1CCCN1C(C)=O)C(=O)OC; tested on = Mycobacterium tuberculosis ClpX; test = ATPase activity; setting = 50 µM, DMSO 80%, together with: ClpP1P2; how to read = baseline: basal activity; quantity = remaining activity; value = ~60%

A few entries again:
SMILES = CCCC/C=C/C(=O)N[C@@H](Cc1cc(F)cc(F)c1)C(=O)N[C@@H](COC(=O)[C@@H]1CCCN1C(C)=O)C(=O)OC; tested on = Mycobacterium tuberculosis ClpX; test = ATPase activity; setting = 50 µM, DMSO 80%, together with: ClpP1P2; how to read = baseline: basal activity; quantity = remaining activity; value = ~60%
SMILES = Cc1cc(Nc2nc(C[C@@]3(C(=O)O)CCN(Cc4cccc(Cl)c4F)[C@H](C)C3)cc(C)c2F)[nH]n1; tested on = AURKA (Thr288 phosphorylation), mouse; test = AURKA phosphorylation, inhibitor, refers to: phospho-AURKA Thr288; system = mouse, NCI-H446 xenograft, tumour; setting = oral, 2.5 mg/kg single dose, 1 h; quantity = inhibition; value = 50.1%
